# Measurements from different studies.
# Every numbered part comes from another study and shows a few of its results, in no order.
# Sequence of UniProt Q99558 (whole entry, looked up): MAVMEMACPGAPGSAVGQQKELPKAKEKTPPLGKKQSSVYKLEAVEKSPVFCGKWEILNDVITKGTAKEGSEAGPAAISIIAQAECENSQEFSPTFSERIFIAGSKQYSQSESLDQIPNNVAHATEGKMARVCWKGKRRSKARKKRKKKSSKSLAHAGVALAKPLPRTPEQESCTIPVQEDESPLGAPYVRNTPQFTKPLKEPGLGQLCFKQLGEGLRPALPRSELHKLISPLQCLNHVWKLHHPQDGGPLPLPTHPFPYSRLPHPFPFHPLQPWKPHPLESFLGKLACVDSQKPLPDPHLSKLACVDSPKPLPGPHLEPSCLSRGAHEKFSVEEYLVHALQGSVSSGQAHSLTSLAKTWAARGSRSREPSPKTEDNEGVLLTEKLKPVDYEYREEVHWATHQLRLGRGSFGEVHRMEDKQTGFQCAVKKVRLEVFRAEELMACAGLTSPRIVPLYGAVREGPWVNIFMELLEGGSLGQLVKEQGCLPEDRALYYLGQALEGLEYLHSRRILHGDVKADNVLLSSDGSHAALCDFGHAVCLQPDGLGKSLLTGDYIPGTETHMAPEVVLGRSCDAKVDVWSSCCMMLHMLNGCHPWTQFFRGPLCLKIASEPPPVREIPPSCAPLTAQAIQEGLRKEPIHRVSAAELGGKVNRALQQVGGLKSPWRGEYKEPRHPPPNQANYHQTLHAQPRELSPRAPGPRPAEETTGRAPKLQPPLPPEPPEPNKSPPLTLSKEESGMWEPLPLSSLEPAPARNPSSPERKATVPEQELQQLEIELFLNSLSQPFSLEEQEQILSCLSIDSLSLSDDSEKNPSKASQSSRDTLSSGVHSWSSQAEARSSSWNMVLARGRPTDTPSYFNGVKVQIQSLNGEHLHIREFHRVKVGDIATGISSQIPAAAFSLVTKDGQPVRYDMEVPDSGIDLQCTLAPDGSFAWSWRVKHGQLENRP
# Sequence of UniProt Q96PY6 (whole entry, looked up): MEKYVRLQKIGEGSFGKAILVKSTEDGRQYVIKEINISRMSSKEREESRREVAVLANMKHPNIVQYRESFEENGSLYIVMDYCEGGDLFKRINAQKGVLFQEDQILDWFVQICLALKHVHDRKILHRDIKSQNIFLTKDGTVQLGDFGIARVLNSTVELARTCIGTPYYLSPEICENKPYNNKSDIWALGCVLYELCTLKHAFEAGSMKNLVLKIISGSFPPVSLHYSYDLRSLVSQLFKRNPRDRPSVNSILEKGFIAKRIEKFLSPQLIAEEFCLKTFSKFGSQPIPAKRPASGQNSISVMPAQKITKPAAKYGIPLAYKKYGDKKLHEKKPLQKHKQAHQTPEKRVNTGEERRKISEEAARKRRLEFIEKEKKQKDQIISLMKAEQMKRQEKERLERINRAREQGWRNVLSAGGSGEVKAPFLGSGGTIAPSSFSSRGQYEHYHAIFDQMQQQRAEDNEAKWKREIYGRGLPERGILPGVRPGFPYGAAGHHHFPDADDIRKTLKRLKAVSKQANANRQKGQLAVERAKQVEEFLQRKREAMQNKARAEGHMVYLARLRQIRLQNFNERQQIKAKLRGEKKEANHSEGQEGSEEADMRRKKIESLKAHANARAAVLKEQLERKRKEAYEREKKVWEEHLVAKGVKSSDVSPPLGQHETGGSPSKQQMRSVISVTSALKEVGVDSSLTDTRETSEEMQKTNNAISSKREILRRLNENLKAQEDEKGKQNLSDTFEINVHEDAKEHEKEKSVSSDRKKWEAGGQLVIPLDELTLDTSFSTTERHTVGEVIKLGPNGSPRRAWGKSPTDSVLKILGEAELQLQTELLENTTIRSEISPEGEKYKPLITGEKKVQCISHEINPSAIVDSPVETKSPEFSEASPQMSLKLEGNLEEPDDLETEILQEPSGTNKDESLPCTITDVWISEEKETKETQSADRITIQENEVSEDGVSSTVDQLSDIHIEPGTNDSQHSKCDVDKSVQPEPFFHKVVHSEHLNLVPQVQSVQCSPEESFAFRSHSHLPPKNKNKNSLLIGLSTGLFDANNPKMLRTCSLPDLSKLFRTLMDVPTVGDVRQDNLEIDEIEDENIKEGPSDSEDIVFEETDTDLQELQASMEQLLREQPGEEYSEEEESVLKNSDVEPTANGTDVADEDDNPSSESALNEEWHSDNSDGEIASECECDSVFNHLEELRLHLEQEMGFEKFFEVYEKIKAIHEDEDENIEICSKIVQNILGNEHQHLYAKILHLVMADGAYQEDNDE
# Sequence of UniProt Q16584 (whole entry, looked up): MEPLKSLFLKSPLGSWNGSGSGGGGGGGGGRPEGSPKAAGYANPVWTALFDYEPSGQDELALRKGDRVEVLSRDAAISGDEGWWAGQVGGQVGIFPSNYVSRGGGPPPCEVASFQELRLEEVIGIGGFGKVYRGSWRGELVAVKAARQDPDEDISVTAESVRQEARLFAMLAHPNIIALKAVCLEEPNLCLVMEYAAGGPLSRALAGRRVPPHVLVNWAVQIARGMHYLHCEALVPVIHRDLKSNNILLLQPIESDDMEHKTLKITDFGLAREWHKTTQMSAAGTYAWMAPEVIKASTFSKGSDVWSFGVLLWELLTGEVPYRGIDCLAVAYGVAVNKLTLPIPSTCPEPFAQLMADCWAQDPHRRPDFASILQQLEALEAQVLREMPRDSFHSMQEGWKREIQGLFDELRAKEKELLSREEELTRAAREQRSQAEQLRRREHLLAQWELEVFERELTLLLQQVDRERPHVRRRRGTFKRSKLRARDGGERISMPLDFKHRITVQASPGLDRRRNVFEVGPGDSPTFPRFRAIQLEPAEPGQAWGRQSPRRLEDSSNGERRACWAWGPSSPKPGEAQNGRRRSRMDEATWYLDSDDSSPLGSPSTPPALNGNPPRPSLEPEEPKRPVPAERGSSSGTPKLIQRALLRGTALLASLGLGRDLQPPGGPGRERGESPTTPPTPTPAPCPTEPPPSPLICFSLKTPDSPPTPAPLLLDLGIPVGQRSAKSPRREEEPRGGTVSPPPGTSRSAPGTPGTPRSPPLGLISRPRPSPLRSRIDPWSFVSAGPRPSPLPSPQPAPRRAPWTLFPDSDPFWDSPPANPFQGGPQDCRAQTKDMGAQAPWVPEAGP
# Sequence of UniProt O60755 (whole entry, looked up): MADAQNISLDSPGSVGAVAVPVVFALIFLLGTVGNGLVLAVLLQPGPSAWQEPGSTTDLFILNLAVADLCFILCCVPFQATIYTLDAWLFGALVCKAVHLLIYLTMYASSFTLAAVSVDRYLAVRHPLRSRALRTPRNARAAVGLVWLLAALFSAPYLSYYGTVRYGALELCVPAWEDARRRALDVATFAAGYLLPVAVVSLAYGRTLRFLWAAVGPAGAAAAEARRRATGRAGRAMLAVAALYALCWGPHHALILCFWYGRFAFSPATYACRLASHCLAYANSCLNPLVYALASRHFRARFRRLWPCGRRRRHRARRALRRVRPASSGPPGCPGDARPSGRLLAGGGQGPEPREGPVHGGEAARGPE
# Sequence of UniProt Q96BR1 (whole entry, looked up): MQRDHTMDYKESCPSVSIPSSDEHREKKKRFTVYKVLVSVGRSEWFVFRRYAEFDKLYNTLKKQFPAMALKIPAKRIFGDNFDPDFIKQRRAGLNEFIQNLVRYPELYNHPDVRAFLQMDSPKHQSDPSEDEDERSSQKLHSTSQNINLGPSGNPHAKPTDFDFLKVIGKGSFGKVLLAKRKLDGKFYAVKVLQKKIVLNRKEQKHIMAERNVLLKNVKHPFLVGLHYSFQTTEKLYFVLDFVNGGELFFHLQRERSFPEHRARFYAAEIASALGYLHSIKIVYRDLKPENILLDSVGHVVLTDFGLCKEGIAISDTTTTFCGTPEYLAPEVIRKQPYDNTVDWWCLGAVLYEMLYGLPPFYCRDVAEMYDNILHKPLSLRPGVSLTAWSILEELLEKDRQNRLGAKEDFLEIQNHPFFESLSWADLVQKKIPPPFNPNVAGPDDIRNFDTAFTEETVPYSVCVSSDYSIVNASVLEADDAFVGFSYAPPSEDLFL
# Sequence of UniProt Q5UAW9 (whole entry, looked up): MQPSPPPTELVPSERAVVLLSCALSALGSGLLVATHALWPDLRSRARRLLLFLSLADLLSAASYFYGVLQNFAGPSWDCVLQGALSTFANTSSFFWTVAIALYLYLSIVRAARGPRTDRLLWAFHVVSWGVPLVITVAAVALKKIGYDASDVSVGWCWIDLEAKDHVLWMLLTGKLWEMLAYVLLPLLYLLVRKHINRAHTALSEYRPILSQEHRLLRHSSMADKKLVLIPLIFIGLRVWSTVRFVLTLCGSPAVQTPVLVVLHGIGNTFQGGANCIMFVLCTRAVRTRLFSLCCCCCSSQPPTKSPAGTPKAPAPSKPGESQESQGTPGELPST

# Block 1
# Target: Calcium/calmodulin-dependent protein kinase type II subunit alpha (CAMK2A, Homo sapiens, UniProt Q9UQM7)
# Sequence of UniProt Q9UQM7 (whole entry, looked up): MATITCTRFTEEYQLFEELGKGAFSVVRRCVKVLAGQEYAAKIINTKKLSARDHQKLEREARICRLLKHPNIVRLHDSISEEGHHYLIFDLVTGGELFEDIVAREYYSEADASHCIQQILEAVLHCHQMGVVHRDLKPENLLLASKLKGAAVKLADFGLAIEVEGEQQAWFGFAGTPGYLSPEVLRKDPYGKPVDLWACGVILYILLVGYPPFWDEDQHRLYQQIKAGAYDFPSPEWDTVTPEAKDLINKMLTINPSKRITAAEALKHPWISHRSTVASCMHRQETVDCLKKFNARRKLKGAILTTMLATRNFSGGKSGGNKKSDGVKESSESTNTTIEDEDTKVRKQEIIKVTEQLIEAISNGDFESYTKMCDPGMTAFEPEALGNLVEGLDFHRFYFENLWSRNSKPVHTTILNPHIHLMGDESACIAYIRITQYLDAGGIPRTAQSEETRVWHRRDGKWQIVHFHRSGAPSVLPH
# Effect on: enzyme activity
# Mode: inhibitor
# Tested at: 10 µM
Compound,inhibition [%]
CC(C)(COP(=O)(O)OP(=O)(O)OC[C@H]1O[C@@H](n2cnc3c(N)ncnc32)[C@H](O)[C@@H]1OP(=O)(O)O)[C@@H](O)C(=O)NCCC(=O)NCCS,-1
CC(C)CCC[C@@H](C)[C@H]1CC[C@H]2[C@@H]3CC=C4C[C@@H](OS(=O)(=O)O)CC[C@]4(C)[C@H]3CC[C@]12C,-28
O=C(CCc1ccc(O)cc1)c1c(O)cc(O[C@@H]2O[C@H](CO)[C@@H](O)[C@H](O)[C@H]2O)cc1O,21
Cc1ccc(C=O)s1,-8
CCCS(=O)(=O)N[C@H]1C[C@@H](N(C)c2ncnc3[nH]ccc23)C1,-12
CNC(=O)c1ccccc1Sc1ccc2c(/C=C/c3ccccn3)n[nH]c2c1,-3
O=C(O)CCc1c[nH]c2ccccc12,28
C/C=C/C/C=C/CCC(=O)[C@H]1O[C@H]1C(N)=O,9
CC1=C(CC[C@H](C)CO[C@@H]2O[C@H](CO)[C@@H](O)[C@H](O)[C@H]2O)O[C@H]2C[C@H]3[C@@H]4CC[C@@H]5C[C@@H](O[C@@H]6O[C@H](CO)[C@@H](O)[C@H](O)[C@H]6O[C@@H]6O[C@H](CO)[C@@H](O)[C@H](O)[C@H]6O)CC[C@]5(C)[C@H]4CC[C@]3(C)[C@@H]12,-22
CC1(C)CC[C@]2(C(=O)O[C@@H]3O[C@H](CO[C@@H]4O[C@H](CO)[C@@H](O)[C@H](O)[C@H]4O)[C@@H](O)[C@H](O)[C@H]3O)CC[C@]3(C)C(=CC[C@@H]4[C@@]5(C)CC[C@H](O[C@@H]6OC[C@H](O)[C@H](O)[C@H]6O)[C@@](C)(CO)[C@@H]5CC[C@]43C)[C@@H]2C1,-7
CCCCCCCC/C=C\CCCCCCCC(=O)NCCO,-39
O=C1OC2(c3ccc(O)cc3Oc3cc(O)ccc32)c2ccccc21,2
C[C@H](CCC(=O)NCC(=O)O)[C@H]1CC[C@H]2[C@@H]3C(O)C[C@@H]4C[C@H](O)CC[C@]4(C)[C@H]3CC[C@]12C (stereo partly drawn),-9
CC[C@@]1(O)C(=O)OCc2c1cc1n(c2=O)Cc2cc3c(CN(C)C)c(O)ccc3nc2-1,2

# Block 2
# Structure (SMILES): Cn1cnc2cc3c(Nc4cccc(Br)c4)ncnc3cc21
# Effect on: enzyme activity
# Mode: inhibitor
# Tested at: 0.5 µM
# Reference: control
target,remaining activity
"ULK2 (Homo sapiens, UniProt Q8IYT8)",74.8%
"WEE1 (Homo sapiens, UniProt P30291)",106%
"JAK3 (Homo sapiens, UniProt P52333)",106%
"TAOK2 (Homo sapiens, UniProt Q9UL54)",103%
"CSNK1G3 (Homo sapiens, UniProt Q9Y6M4)",88.1%
"MAPKAPK2 (Homo sapiens, UniProt P49137)",104%
"MAP3K5 (Homo sapiens, UniProt Q99683)",110%
"EPHA3 (Homo sapiens, UniProt P29320)",82.9%
"MST1R (Homo sapiens, UniProt Q04912)",96.5%
"NEK1 (Homo sapiens, UniProt Q96PY6)",97.9%
"MAP3K14 (Homo sapiens, UniProt Q99558)",90.6%
"CSNK1G2 (Homo sapiens, UniProt P78368)",89.2%
"TEK (Homo sapiens, UniProt Q02763)",98.9%
"ACVR1B (Homo sapiens, UniProt P36896)",111%

# Block 3
# Compound: NC(N)=NC(=O)c1nc(Cl)c(N2CCCCCC2)nc1N
# Effect on: β-arrestin recruitment
# Mode: agonist
# Method: PRESTO-Tango
# Tested at: 10 µM
# Reference: untreated
target,fold over basal
"NPY2R (Homo sapiens, UniProt P49146)",0.85
"F2RL1 (Homo sapiens, UniProt P55085)",0.81
"G-protein coupled receptor 157 (GPR157, Homo sapiens, UniProt Q5UAW9)",0.58
"OPRK1 (Homo sapiens, UniProt P41145)",1.54 fold
"S1PR4 (Homo sapiens, UniProt O95977)",1.46
"GALR2 (Homo sapiens, UniProt O43603)",0.58 fold
"ADRA2A (Homo sapiens, UniProt P08913)",1
"GLP2R (Homo sapiens, UniProt O95838)",0.51 fold
"P2Y purinoceptor 4 (P2RY4, Homo sapiens, UniProt P51582)",0.9
"CMKLR2 (Homo sapiens, UniProt P46091)",0.63
"Galanin receptor type 3 (Homo sapiens, UniProt O60755)",0.68 fold
"NMBR (Homo sapiens, UniProt P28336)",0.83
"AVPR1B (Homo sapiens, UniProt P47901)",0.5
"Probable G-protein coupled receptor 152 (GPR152, Homo sapiens, UniProt Q8TDT2)",0.55
"NPY5R (Homo sapiens, UniProt Q15761)",0.71
"Trace amine-associated receptor 6 (TAAR6, Homo sapiens, UniProt Q96RI8)",1.1 fold

# Block 4
# SMILES: CS(=O)(=O)NCC[C@H](NC(=O)c1cncc2c1cnn2-c1ccc(F)cc1)c1ccnc(S(C)(=O)=O)c1
# Effect on: cell-free assay
# Method: competition with immobilised ligand
# Tested at: 1 µM
target,remaining binding
"MAP3K11 (Homo sapiens, UniProt Q16584)",100%
"Tyrosine-protein kinase ABL1, phosphorylated (ABL1, Homo sapiens, UniProt P00519, Q252H)",100%
"EPHB1 (Homo sapiens, UniProt P54762)",88%
"CLK4 (Homo sapiens, UniProt Q9HAZ1)",85%
"SGK3 (Homo sapiens, UniProt Q96BR1)",100%
"Tyrosine-protein kinase ABL1, phosphorylated (ABL1, Homo sapiens, UniProt P00519, M351T)",100%
"PIKFYVE (Homo sapiens, UniProt Q9Y2I7)",76%
"MAP3K14 (Homo sapiens, UniProt Q99558)",100%
"Tyrosine-protein kinase ABL1, non-phosphorylated (ABL1, Homo sapiens, UniProt P00519)",90%
"PIK3C2B (Homo sapiens, UniProt O00750)",78%
"NEK10 (Homo sapiens, UniProt Q6ZWH5)",100%
"TNK1 (Homo sapiens, UniProt Q13470)",100%
"KIT (Homo sapiens, UniProt P10721, D816V)",94%
"PIK3CD (Homo sapiens, UniProt O00329)",100%
"Ribosomal protein S6 kinase alpha-4, C-terminal kinase domain (RPS6KA4, Homo sapiens, UniProt O75676)",100%
"Ribosomal protein S6 kinase alpha-3, N-terminal kinase domain (RPS6KA3, Homo sapiens, UniProt P51812)",100%
"TAOK1 (Homo sapiens, UniProt Q7L7X3)",82%
"ROCK1 (Homo sapiens, UniProt Q13464)",100%
"HIPK2 (Homo sapiens, UniProt Q9H2X6)",100%
"MYLK (Homo sapiens, UniProt Q15746)",100%
"MAP4K5 (Homo sapiens, UniProt Q9Y4K4)",83%
"SBK3 (Homo sapiens, UniProt P0C264)",100%
"TNK2 (Homo sapiens, UniProt Q07912)",100%
"ERBB3 (Homo sapiens, UniProt P21860)",100%
"STK38 (Homo sapiens, UniProt Q15208)",100%

# Some of these lines once more (block 4):
target,remaining binding
"PIK3CD (Homo sapiens, UniProt O00329)",100%
"Ribosomal protein S6 kinase alpha-4, C-terminal kinase domain (RPS6KA4, Homo sapiens, UniProt O75676)",100%
"Ribosomal protein S6 kinase alpha-3, N-terminal kinase domain (RPS6KA3, Homo sapiens, UniProt P51812)",100%
"TAOK1 (Homo sapiens, UniProt Q7L7X3)",82%
"ROCK1 (Homo sapiens, UniProt Q13464)",100%
"HIPK2 (Homo sapiens, UniProt Q9H2X6)",100%
